Experimental data gathered from unrelated publications.
Compare with care: the assays were run in different laboratories. Numbers after ± are the reported error.
Action: substrate
MALT1: Mucosa-associated lymphoid tissue lymphoma translocation protein 1 (MALT1, Homo sapiens, UniProt Q9UDY8)
HDAC8: Histone deacetylase 8 (HDAC8, Homo sapiens, UniProt Q9BY41)
MIPEP: Mitochondrial intermediate peptidase (MIPEP, Homo sapiens, UniProt Q99797)

Sequences of proteins named here, by UniProt entry; tags and fusion partners are left off. Residues count along the entry.
UniProt Q9UDY8, 329-566 limits assumed: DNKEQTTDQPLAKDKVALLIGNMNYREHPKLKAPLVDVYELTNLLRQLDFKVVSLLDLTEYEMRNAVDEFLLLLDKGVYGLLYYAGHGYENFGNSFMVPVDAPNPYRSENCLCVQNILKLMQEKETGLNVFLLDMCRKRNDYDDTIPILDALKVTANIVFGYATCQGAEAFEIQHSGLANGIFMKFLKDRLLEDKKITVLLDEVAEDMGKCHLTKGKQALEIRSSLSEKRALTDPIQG
UniProt Q9BY41, whole entry: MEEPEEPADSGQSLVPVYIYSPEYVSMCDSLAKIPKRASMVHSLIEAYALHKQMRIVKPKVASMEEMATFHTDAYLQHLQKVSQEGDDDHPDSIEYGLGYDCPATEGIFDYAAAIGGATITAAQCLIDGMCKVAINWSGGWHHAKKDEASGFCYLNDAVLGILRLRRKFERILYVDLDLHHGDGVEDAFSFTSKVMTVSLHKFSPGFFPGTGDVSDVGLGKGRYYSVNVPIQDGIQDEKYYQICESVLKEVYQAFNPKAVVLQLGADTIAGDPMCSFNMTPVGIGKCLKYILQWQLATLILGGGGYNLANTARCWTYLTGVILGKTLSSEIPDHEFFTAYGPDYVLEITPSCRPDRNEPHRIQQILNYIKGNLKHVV
UniProt Q99797, 36-713 limits assumed: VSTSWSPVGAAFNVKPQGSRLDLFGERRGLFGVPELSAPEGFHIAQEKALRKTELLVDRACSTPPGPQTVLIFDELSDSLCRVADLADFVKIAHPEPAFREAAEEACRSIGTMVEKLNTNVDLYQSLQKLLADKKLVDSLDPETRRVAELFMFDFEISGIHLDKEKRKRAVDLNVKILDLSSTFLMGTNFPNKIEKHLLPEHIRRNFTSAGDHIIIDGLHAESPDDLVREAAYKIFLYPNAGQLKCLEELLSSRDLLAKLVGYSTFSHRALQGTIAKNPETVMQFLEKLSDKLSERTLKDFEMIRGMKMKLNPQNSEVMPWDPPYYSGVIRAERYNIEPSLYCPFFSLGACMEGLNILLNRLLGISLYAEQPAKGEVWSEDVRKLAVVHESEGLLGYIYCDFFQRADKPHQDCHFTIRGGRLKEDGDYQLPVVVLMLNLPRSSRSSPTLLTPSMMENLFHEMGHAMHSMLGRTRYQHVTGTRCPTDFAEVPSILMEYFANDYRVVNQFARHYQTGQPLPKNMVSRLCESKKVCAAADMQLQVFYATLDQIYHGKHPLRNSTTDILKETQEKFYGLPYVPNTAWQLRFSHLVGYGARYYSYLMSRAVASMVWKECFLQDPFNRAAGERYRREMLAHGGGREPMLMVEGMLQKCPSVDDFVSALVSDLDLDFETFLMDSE
UniProt Q9UBN7, whole entry: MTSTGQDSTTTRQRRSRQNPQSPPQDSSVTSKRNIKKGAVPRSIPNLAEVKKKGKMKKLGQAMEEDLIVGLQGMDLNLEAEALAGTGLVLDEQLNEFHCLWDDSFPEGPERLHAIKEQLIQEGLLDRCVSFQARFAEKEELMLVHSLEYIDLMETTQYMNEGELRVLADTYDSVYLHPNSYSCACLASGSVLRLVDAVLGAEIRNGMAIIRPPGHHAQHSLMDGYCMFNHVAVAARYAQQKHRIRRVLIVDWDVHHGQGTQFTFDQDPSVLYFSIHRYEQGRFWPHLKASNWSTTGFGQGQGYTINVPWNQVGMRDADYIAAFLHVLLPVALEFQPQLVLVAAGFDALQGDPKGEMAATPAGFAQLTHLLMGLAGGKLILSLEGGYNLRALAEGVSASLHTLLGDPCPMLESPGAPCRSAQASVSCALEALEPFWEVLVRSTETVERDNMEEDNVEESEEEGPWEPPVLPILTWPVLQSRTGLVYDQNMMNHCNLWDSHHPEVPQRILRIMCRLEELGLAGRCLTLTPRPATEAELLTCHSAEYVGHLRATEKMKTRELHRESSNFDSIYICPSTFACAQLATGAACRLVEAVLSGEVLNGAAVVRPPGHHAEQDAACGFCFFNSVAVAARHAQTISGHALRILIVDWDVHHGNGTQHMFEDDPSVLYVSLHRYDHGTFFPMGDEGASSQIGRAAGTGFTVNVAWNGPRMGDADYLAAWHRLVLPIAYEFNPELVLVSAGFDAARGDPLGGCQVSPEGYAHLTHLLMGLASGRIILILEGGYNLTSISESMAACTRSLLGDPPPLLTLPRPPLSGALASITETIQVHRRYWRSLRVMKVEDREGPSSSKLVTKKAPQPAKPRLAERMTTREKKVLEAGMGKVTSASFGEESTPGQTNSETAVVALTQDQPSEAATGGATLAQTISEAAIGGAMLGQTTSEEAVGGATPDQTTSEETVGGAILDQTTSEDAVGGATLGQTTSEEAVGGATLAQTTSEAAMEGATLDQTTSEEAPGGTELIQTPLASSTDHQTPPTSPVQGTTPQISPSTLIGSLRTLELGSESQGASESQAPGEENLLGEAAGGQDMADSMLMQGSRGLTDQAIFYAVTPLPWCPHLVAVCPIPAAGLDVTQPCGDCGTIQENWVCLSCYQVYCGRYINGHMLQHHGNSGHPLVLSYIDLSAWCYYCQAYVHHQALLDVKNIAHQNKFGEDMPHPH
UniProt Q9NY33, whole entry: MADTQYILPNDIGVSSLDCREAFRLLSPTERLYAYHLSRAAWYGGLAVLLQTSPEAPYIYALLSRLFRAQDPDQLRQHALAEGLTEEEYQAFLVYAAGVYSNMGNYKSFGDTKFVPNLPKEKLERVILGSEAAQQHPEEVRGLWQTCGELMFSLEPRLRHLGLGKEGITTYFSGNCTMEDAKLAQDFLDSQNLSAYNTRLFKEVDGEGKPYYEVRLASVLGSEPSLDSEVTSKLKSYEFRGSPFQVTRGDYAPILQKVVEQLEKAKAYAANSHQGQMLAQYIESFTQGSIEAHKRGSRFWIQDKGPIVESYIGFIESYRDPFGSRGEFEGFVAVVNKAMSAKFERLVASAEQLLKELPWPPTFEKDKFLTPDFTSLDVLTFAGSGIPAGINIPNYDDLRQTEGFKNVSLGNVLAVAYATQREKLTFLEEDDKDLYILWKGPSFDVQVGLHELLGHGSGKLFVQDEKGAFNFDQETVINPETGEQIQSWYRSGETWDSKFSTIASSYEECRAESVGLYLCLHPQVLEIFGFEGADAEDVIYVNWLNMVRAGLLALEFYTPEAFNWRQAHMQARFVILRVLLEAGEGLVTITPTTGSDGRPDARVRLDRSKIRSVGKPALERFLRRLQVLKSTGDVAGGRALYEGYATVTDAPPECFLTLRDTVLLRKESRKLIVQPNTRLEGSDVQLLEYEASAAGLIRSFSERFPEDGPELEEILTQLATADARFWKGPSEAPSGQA
UniProt O60502, whole entry: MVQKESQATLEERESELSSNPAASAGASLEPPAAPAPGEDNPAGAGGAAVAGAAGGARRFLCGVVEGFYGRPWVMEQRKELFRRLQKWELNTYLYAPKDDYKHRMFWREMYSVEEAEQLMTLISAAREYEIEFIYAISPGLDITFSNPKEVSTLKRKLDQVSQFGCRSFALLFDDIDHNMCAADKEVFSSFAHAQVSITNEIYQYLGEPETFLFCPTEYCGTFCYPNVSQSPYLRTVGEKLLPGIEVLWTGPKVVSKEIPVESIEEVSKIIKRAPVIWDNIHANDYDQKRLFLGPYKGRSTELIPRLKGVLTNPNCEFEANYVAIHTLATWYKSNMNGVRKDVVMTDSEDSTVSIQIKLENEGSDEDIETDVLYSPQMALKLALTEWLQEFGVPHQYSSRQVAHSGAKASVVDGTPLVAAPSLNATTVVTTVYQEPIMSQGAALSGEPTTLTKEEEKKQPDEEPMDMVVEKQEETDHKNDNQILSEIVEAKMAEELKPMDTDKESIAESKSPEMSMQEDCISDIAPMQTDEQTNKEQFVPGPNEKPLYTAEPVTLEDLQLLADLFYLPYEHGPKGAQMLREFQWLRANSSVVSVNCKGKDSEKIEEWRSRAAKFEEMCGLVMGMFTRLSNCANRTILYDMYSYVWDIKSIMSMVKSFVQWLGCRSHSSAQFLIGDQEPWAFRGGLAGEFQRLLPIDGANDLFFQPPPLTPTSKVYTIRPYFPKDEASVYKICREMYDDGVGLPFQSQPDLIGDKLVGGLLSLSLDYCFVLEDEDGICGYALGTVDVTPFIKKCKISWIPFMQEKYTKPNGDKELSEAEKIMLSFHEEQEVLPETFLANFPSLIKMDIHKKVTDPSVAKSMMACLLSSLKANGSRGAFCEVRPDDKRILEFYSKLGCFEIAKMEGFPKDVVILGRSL

With `CC(=O)NCCCC[C@H](NC(C)=O)C(=O)Nc1ccc2c(C)cc(=O)oc2c1` the Km was 15 ± 7 µM (HDAC6 (Homo sapiens, UniProt Q9UBN7); 25 °C).
For `CC[C@H](C)[C@H](NC(=O)[C@H](Cc1ccc(O)cc1)NC(=O)[C@@H](N)C(C)C)C(=O)N[C@@H](Cc1cnc[nH]1)C(=O)N1CCC[C@H]1C(=O)O`, the Km was 3 ± 1 µM (DPP3 (Homo sapiens, UniProt Q9NY33); radiolabelled substrate hydrolysis; 37 °C, added: 0.5 nM iodinated substrate).
For `CC(=O)N[C@@H](C)C(=O)N[C@@H](CC(C)C)C(=O)N[C@H](C(=O)N[C@@H](CO)C(=O)N[C@@H](CCCNC(=N)N)C(=O)Nc1ccc2c(CC(N)=O)cc(=O)oc2c1)C(C)C`, the Km was 3 µM (MALT1; fluorogenic peptide hydrolysis; pH 7.5, catalytic domain, sodium citrate 0.9 M).
With `CC(=O)NCCCC[C@H](NC(=O)[C@H](CCCCNC(C)=O)NC(=O)[C@H](Cc1c[nH]cn1)NC(=O)[C@H](CCCNC(=N)N)NC(C)=O)C(N)=O` the Km was 3100 ± 1100 µM (HDAC8; 25 °C).
For `CC(=O)N[C@H]1[C@H](OC[C@H](NC(=O)[C@H](Cc2c[nH]cn2)NC(=O)[C@H](C)NC(=O)[C@@H](NC(C)=O)C(C)C)C(=O)NCC(=O)N[C@@H](C)C(N)=O)O[C@H](CO)[C@@H](O)[C@@H]1O`, the Km was 1200 ± 43 µM (Protein O-GlcNAcase (OGA, Homo sapiens, UniProt O60502); pH 7.5, 37 °C, added: 4MU-GlcNAc 200 µM competition).
`Cc1cc(=O)oc2cc(NC(=O)[C@H](Cc3ccc(O)cc3)NC(=O)[C@@H](NC(=O)[C@H](CC(C)C)NC(=O)[C@H](CC(C)C)NC(=O)CCC(=O)O)C(C)C)ccc12` has a Km of 5.9 ± 0.8 µM (PSMB5 (Homo sapiens, UniProt P28074); chymotrypsin-like activity; pH 7.8, 37 °C).
For `CC(C)C[C@H](NC(=O)[C@@H]1CCCN1C(=O)[C@H](CCC(N)=O)NC(=O)c1ccccc1N)C(=O)N[C@@H](CCC(N)=O)C(=O)N[C@@H](C)C(=O)N[C@@H](CCCCN)C(=O)N[C@H](C(=O)N[C@@H](CCC(N)=O)C(=O)NCCNc1ccc([N+](=O)[O-])cc1[N+](=O)[O-])C(C)C`, the Km was 3.2 µM (MIPEP; FRET peptide hydrolysis).
For `CC(=O)N[C@@H](CC(C)C)C(=O)N[C@@H](CCCNC(=N)N)C(=O)N[C@@H](CO)C(=O)N[C@@H](CCCNC(=N)N)C(=O)Nc1ccc2c(C(F)(F)F)cc(=O)oc2c1`, the Km was 15.3 µM (MALT1; fluorogenic peptide hydrolysis; pH 7.5, catalytic domain, sodium citrate 0.9 M).
The Km of `CC(C)[C@H](NC(=O)[C@@H](NC(=O)[C@@H](NC(=O)[C@H](CCCCN)NC(=O)[C@H](CO)NC(=O)[C@H](CO)NC(=O)[C@H](Cc1ccccc1)NC(=O)c1ccccc1N)[C@@H](C)O)[C@@H](C)O)C(=O)N[C@@H](CCCCNc1ccc([N+](=O)[O-])cc1[N+](=O)[O-])C(N)=O` is reported as 1.3 µM (MIPEP; FRET peptide hydrolysis).
`CC(=O)NCCCC[C@H](NC(C)=O)C(N)=O` has a Km of 800 ± 400 µM (HDAC8; 25 °C).
